Measured values pooled from the literature.
A part holds a random share of what one study measured. “And” joins repeats or separate records; there may be more than shown.
Sequence of UniProt P23458 (whole entry, looked up): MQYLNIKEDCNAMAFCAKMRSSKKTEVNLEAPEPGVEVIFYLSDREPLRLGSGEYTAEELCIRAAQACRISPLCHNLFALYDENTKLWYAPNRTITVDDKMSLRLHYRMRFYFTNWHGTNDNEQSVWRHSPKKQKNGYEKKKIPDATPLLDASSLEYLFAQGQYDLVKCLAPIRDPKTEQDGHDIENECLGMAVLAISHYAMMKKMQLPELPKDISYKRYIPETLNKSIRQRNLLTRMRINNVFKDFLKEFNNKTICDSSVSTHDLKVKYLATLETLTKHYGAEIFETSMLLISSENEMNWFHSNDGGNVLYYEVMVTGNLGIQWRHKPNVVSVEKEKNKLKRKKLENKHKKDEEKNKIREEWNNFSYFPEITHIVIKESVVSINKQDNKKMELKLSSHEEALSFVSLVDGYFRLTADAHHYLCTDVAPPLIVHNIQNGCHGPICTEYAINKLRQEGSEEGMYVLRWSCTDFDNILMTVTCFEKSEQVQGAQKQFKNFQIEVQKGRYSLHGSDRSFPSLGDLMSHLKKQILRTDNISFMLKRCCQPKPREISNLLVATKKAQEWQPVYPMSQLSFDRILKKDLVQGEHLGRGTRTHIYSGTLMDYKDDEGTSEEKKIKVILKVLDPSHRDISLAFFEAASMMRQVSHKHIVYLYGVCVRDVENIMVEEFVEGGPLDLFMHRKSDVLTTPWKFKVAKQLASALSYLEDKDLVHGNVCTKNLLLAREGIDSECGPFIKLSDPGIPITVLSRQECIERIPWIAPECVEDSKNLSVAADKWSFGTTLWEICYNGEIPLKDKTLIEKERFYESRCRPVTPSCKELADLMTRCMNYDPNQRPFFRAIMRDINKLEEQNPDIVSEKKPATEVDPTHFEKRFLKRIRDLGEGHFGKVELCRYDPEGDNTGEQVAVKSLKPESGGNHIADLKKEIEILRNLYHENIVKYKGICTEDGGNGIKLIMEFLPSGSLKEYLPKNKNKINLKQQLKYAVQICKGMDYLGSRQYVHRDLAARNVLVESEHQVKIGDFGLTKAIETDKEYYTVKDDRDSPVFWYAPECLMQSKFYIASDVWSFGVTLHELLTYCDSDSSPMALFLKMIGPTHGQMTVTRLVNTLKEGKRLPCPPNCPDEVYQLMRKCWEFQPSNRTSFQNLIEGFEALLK
Sequence of UniProt Q5VT25 (whole entry, looked up): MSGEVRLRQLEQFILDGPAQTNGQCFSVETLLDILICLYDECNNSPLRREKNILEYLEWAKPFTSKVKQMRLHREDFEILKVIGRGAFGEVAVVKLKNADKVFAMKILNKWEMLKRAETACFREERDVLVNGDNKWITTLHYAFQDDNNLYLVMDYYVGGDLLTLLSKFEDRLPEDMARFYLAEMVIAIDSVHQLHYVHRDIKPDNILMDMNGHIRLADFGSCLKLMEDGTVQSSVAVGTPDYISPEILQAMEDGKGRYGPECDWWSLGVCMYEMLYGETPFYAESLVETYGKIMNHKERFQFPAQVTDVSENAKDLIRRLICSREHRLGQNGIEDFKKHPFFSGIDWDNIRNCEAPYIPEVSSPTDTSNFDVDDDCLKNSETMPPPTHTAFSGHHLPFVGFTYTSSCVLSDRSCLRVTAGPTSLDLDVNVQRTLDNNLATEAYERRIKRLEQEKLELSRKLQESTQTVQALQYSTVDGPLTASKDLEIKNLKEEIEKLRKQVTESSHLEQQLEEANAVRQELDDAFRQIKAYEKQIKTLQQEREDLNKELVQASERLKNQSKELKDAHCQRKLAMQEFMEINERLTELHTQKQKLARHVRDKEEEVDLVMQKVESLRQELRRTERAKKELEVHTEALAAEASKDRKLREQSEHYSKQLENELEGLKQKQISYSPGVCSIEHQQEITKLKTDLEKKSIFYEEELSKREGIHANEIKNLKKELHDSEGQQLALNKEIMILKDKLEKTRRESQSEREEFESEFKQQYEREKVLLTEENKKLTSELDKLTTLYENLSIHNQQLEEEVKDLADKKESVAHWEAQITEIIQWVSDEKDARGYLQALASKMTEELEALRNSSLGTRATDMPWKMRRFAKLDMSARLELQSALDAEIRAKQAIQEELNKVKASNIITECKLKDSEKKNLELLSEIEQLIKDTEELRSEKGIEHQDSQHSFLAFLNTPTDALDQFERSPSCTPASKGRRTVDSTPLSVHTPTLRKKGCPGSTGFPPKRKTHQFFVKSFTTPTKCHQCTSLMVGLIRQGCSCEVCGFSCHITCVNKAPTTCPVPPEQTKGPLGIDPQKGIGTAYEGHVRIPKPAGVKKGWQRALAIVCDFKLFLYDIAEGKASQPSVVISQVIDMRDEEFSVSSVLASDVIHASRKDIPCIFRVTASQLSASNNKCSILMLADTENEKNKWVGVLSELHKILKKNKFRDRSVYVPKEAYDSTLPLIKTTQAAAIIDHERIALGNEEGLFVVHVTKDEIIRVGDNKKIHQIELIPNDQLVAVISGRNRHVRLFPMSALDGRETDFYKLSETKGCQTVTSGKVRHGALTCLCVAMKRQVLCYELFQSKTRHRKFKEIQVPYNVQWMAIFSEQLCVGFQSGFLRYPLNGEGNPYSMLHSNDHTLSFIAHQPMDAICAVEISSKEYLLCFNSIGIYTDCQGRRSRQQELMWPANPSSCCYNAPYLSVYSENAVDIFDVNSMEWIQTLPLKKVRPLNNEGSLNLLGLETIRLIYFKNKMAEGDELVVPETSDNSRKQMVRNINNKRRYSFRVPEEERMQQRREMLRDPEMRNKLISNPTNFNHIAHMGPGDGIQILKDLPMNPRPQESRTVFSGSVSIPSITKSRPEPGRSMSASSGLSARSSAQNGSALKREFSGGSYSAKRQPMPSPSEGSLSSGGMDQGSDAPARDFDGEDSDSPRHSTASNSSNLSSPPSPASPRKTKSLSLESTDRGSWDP
Sequence of UniProt P46734 (whole entry, looked up): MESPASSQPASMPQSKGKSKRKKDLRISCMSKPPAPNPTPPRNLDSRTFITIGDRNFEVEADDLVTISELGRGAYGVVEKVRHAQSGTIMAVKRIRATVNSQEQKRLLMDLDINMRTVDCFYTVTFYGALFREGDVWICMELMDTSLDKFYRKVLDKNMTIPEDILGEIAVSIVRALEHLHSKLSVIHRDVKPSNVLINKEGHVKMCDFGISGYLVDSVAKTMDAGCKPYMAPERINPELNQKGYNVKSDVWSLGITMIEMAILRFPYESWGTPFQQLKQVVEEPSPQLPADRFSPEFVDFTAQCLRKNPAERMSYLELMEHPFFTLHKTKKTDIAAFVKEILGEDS
Sequence of UniProt Q16832 (whole entry, looked up): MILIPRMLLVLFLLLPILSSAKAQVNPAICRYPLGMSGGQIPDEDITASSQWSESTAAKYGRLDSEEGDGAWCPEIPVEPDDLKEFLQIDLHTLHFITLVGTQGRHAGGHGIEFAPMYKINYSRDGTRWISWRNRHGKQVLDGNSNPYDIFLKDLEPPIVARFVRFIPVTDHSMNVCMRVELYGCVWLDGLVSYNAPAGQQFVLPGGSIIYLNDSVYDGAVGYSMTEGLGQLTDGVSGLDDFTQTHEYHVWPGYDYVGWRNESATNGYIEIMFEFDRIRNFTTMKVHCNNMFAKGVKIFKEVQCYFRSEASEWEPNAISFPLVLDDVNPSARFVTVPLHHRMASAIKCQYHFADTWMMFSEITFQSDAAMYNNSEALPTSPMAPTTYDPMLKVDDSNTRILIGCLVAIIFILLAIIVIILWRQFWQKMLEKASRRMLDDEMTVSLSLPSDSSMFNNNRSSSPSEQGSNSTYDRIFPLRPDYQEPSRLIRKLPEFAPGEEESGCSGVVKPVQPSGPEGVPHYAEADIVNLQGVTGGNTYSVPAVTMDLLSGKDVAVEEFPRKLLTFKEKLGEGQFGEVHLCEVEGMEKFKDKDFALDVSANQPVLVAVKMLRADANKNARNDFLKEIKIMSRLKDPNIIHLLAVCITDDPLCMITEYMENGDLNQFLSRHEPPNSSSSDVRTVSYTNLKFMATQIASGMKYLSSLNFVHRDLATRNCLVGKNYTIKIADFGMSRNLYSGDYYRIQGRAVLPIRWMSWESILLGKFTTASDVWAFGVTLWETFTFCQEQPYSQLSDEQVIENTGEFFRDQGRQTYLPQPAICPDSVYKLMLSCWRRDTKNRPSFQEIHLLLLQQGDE

Sample 1
SMILES: CN1CCN(C(=O)c2ccc(NC(=O)Nc3ccc(N(C)c4ccnc(Nc5ccc(CS(C)(=O)=O)cc5)n4)cc3)cc2)CC1
Effect on: binding
Tested at: 1 µM
It gave 0% for remaining binding (FLT3 (Homo sapiens, UniProt P36888, N841I)).
The remaining binding was 99% (WEE2 (Homo sapiens, UniProt P0C1S8); competition with immobilised ligand).
It gave 92% for remaining binding (MARK4 (Homo sapiens, UniProt Q96L34)).
The remaining binding was 89% (CDC42BPA (Homo sapiens, UniProt Q5VT25); competition with immobilised ligand).
It gave 97% for remaining binding (PIK3CA (Homo sapiens, UniProt P42336, E545K)).
It gave 100% for remaining binding (AKT3 (Homo sapiens, UniProt Q9Y243)).
EPHB2 (Homo sapiens, UniProt P29323); competition with immobilised ligand — remaining binding: 76%.
For ROS1 (Homo sapiens, UniProt P08922): remaining binding read 57%.
It gave 73% for remaining binding (SGK2 (Homo sapiens, UniProt Q9HBY8)).

Sample 2
SMILES: Cn1cnc(Cn2ccc3ccc(CNCc4[nH]c5ccccc5c4[C@H]4NC(=O)c5ccc(O)cc54)cc32)c1
Effect on: binding
Mode: competitor
Method: NanoBRET
Cells: HEK293
KRAS G12C: GTPase KRas (KRAS, Homo sapiens, UniProt P01116, G12C)
KRAS: GTPase KRas (KRAS, Homo sapiens, UniProt P01116)
KRAS G12C; 20 µM, 3 h; reference: vehicle and 20 µM BI compound — normalized BRET: -0.95% and -0.78% and 0.96% and 0.76%.
For KRAS G12C; 20 µM, 0.5 h; reference: vehicle and 20 µM BI compound: normalized BRET read 3.06% and -2.48% and -0.49% and -0.09%.
It gave -2.55e-15% and 0.0219% and -5e-07% and -9.51e-16% for normalized BRET (KRAS; 20 µM).
KRAS G12C; 3.05 nM, 1 h; reference: vehicle and 20 µM BI compound — normalized BRET: 92.1% and 90.7% and 95.5% and 88.9%.
The normalized BRET was 93.7% and 77% and 73% and 94.1% (KRAS; 1.02 nM).
It gave 79.6% and 101% and 68.9% and 70.5% for normalized BRET (KRAS; 247 nM).

Sample 3
Target: Serine/threonine-protein kinase VRK1 (VRK1, Homo sapiens, UniProt Q99986)
Effect on: enzyme activity
Mode: inhibitor
Tested at: 0.5 µM
Reference: control
Residues (Q99986 1-396): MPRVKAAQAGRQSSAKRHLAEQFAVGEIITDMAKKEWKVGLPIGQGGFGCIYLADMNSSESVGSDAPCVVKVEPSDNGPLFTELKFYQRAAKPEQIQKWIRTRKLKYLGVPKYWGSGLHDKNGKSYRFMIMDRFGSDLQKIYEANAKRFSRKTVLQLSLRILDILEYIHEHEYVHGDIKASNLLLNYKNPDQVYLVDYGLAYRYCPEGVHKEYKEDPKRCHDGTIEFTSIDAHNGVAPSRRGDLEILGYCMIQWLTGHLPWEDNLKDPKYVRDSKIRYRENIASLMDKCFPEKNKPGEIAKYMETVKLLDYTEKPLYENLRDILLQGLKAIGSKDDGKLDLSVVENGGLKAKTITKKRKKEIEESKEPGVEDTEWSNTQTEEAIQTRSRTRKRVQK
For `COc1cc2ncnc(Nc3ccc(Oc4ccccc4)cc3)c2cc1OC`, the remaining activity was 98.2%.
The remaining activity of `Nc1ncnc2n[nH]c(Nc3ccc(F)cc3)c12` is reported as 82.9%.
`COc1ccc(CNC(=O)Nc2ncc([N+](=O)[O-])s2)cc1` gave a remaining activity of 95%.
With `O=S(=O)(c1cccc2cnccc12)N1CCCNCC1` the remaining activity was 87.6%.
The remaining activity of `CO[C@H]1C[C@@H]2CC[C@@H](C)[C@@](O)(O2)C(=O)C(=O)N2CCCC[C@H]2C(=O)O[C@H]([C@H](C)C[C@@H]2CC[C@@H](O)[C@H](OC)C2)CC(=O)[C@H](C)/C=C(\C)[C@@H](O)[C@@H](OC)C(=O)[C@H](C)C[C@H](C)/C=C/C=C/C=C/1C` is reported as 108%.
The remaining activity of `O=C(Nc1cccc(Nc2cc(Nc3cccc(C(F)(F)F)c3)ncn2)c1)C1CC1` is reported as 94%.
`Cc1ccc(NC(=O)c2ccc(CN3CCN(C)CC3)cc2)cc1Nc1nc(-c2cccnc2)cs1` gave a remaining activity of 97.4%.
The remaining activity of `CC(C)[C@H](CO)Nc1nc(Nc2cc(N)cc(Cl)c2)c2ncn(C(C)C)c2n1` is reported as 85.8%.
`COc1ccc(C(=O)Nc2sc3c(c2C(N)=O)CCCC3)cc1OC` has a remaining activity of 95.3%.
For `O=C1NC(=O)C(c2cn(CCCn3ccnc3)c3ccccc23)=C1Nc1ccccc1`, the remaining activity was 98.7%.
With `Nc1ccc2ncnc(NCCc3ccc(Oc4ccccc4)cc3)c2c1` the remaining activity was 99.5%.
The remaining activity of `COc1ccc(OC)c2c(=S)c3ccccc3[nH]c12` is reported as 100%.
The remaining activity of `Nc1[nH]nc2nc3ccccc3nc12` is reported as 103%.
For `CNC(=O)c1cc(Oc2ccc(NC(=O)Nc3ccc(Cl)c(C(F)(F)F)c3)cc2)ccn1`, the remaining activity was 99.3%.
The remaining activity of `Cn1sc(=O)n(Cc2ccccc2)c1=O` is reported as 94.2%.
`Cn1c2ccccc2c2c3c(c4c5ccccc5n(CCC#N)c4c21)CNC3=O` gave a remaining activity of 84%.

Sample 4
SMILES: Cn1cc(Cl)c2c(Oc3c(F)cc(Nc4cc(Cl)nc(N)n4)cc3F)ccnc21
Tested at: 0.1 µM
For DDR2 (Homo sapiens, UniProt Q16832); cell-free assay, competition with immobilised ligand: remaining binding read 66%.
It gave 100% for remaining binding (CAMK2B (Homo sapiens, UniProt Q13554); cell-free assay, competition with immobilised ligand).
For FLT4 (Homo sapiens, UniProt P35916); cell-free assay, competition with immobilised ligand: remaining binding read 96%.
The remaining binding was 97% (PRKAA2 (Homo sapiens, UniProt P54646); cell-free assay, competition with immobilised ligand).
For Tyrosine-protein kinase ABL1, non-phosphorylated (ABL1, Homo sapiens, UniProt P00519, T315I); cell-free assay, competition with immobilised ligand: remaining binding read 84%.
CSNK1D (Homo sapiens, UniProt P48730); cell-free assay, competition with immobilised ligand — remaining binding: 100%.
For CLK2 (Homo sapiens, UniProt P49760); cell-free assay, competition with immobilised ligand: remaining binding read 87%.
For PTK2 (Homo sapiens, UniProt Q05397); cell-free assay, competition with immobilised ligand: remaining binding read 100%.
Tyrosine-protein kinase JAK1, JH2 (JAK1, Homo sapiens, UniProt P23458); cell-free assay, competition with immobilised ligand — remaining binding: 83%.
SRPK3 (Homo sapiens, UniProt Q9UPE1); cell-free assay, competition with immobilised ligand — remaining binding: 100%.
It gave 100% for remaining binding (MAPK6 (Homo sapiens, UniProt Q16659); cell-free assay, competition with immobilised ligand).
NEK4 (Homo sapiens, UniProt P51957); cell-free assay, competition with immobilised ligand — remaining binding: 84%.
MAPK1 (Homo sapiens, UniProt P28482); cell-free assay, competition with immobilised ligand — remaining binding: 100%.
For CDKL1 (Homo sapiens, UniProt Q00532); cell-free assay, competition with immobilised ligand: remaining binding read 100%.
It gave 97% for remaining binding (IRAK3 (Homo sapiens, UniProt Q9Y616); cell-free assay, competition with immobilised ligand).
Tyrosine-protein kinase JAK1, JH1 (JAK1, Homo sapiens, UniProt P23458); cell-free assay, competition with immobilised ligand — remaining binding: 89%.
For STK32A (Homo sapiens, UniProt Q8WU08); cell-free assay, competition with immobilised ligand: remaining binding read 89%.
The remaining binding was 100% (CASK (Homo sapiens, UniProt O14936); cell-free assay, competition with immobilised ligand).
CAMK2D (Homo sapiens, UniProt Q13557); cell-free assay, competition with immobilised ligand — remaining binding: 95%.
The remaining binding was 100% (MKNK1 (Homo sapiens, UniProt Q9BUB5); cell-free assay, competition with immobilised ligand).
It gave 95% for remaining binding (MYLK (Homo sapiens, UniProt Q15746); cell-free assay, competition with immobilised ligand).
MAP4K1 (Homo sapiens, UniProt Q92918); cell-free assay, competition with immobilised ligand — remaining binding: 82%.
STK38 (Homo sapiens, UniProt Q15208); cell-free assay, competition with immobilised ligand — remaining binding: 87%.
The remaining binding was 89% (Tyrosine-protein kinase ABL1, phosphorylated (ABL1, Homo sapiens, UniProt P00519, F317I); binding).
For MAP2K3 (Homo sapiens, UniProt P46734); cell-free assay, competition with immobilised ligand: remaining binding read 94%.

For quick reference, copied from above (sample 3):
The remaining activity of `O=C(Nc1cccc(Nc2cc(Nc3cccc(C(F)(F)F)c3)ncn2)c1)C1CC1` is reported as 94%.
For `CNC(=O)c1cc(Oc2ccc(NC(=O)Nc3ccc(Cl)c(C(F)(F)F)c3)cc2)ccn1`, the remaining activity was 99.3%.
The remaining activity of `CC(C)[C@H](CO)Nc1nc(Nc2cc(N)cc(Cl)c2)c2ncn(C(C)C)c2n1` is reported as 85.8%.
`Cn1c2ccccc2c2c3c(c4c5ccccc5n(CCC#N)c4c21)CNC3=O` gave a remaining activity of 84%.
The remaining activity of `COc1ccc(OC)c2c(=S)c3ccccc3[nH]c12` is reported as 100%.
With `Nc1ccc2ncnc(NCCc3ccc(Oc4ccccc4)cc3)c2c1` the remaining activity was 99.5%.
